Results gathered from unrelated publications.
A part holds a random share of what one study measured. Changes are numbered by the printed parent chain.
Chain of UniProt Q9FKM7 (whole entry, looked up): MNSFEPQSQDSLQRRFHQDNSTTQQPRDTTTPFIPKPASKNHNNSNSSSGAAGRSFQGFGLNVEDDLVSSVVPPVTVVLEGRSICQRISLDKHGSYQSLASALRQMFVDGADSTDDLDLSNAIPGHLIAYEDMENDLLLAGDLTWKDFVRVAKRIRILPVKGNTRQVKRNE
Chain of UniProt P93022 (whole entry, looked up): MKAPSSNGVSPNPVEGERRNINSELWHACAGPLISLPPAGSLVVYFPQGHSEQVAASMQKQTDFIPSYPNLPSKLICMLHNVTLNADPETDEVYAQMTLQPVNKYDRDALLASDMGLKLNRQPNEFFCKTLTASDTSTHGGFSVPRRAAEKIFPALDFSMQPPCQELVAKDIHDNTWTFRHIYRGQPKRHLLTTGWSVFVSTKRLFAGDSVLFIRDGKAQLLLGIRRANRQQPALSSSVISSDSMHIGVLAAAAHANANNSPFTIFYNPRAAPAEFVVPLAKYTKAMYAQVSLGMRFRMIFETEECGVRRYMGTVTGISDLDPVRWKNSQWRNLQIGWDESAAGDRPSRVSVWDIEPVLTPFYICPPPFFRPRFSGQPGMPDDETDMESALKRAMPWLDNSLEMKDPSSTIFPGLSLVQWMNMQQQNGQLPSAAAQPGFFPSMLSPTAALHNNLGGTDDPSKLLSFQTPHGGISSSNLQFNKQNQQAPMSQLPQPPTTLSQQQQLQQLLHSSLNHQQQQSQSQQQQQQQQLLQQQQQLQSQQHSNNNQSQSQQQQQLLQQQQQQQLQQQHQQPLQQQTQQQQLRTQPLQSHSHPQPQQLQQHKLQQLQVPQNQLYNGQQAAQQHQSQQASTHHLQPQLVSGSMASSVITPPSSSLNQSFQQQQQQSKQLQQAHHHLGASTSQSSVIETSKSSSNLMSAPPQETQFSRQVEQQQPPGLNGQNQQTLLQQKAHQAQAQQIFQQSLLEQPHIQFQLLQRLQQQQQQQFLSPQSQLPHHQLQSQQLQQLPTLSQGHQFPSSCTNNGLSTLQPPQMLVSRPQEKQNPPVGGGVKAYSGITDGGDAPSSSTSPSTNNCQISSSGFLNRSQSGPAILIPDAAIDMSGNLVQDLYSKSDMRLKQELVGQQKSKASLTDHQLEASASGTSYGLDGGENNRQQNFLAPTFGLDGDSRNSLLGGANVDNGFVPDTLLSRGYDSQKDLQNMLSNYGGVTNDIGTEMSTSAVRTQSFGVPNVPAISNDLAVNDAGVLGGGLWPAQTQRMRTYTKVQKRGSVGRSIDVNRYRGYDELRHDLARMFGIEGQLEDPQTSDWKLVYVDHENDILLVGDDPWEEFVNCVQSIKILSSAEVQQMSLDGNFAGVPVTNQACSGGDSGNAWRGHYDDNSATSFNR
Chain of UniProt Q94JM3 (whole entry, looked up): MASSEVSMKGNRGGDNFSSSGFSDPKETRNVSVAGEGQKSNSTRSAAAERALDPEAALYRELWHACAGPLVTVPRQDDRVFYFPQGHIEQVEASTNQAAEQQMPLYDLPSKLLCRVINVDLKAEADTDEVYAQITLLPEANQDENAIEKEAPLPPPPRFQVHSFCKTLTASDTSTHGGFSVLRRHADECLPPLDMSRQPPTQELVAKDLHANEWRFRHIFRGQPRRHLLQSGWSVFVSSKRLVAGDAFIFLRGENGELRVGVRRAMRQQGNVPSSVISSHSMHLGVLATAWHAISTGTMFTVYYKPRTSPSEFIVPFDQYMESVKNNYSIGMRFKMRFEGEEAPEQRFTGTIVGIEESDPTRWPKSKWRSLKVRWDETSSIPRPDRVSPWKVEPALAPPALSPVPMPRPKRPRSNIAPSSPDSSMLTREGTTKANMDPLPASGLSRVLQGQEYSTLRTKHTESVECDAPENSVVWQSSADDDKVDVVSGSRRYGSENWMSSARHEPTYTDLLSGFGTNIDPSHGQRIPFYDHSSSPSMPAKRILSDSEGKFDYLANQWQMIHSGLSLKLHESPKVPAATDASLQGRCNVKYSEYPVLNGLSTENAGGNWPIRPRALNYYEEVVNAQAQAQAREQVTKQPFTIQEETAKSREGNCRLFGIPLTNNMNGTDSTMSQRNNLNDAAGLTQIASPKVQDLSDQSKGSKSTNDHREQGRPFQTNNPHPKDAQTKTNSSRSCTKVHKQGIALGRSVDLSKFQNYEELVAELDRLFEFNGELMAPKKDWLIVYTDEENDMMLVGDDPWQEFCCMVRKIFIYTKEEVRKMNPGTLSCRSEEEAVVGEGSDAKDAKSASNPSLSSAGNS
Chain of UniProt Q8L7G0 (whole entry, looked up): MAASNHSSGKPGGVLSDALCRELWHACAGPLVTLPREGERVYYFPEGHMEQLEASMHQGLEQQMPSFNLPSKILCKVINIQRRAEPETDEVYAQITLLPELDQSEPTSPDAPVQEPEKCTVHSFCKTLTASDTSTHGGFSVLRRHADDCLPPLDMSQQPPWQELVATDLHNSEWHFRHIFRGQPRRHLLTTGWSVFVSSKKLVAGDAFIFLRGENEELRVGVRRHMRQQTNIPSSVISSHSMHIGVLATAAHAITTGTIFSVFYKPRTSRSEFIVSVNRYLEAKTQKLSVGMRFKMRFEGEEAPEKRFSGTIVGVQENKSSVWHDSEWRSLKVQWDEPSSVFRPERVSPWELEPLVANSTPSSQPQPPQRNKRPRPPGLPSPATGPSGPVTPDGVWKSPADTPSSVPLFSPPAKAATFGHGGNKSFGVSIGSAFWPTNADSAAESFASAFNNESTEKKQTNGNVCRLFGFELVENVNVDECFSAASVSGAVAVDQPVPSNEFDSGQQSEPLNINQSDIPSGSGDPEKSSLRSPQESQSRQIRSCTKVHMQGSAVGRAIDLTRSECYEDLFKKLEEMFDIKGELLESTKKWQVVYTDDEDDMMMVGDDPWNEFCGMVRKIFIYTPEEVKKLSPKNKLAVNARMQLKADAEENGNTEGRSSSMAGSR

Study 1
Target: JDP2, bZIP domain (human)
Technique: DHFR protein complementation
Matrix: yeast
Notes: single substitutions, most at no-binding floor
Baseline: wild-type JUN-FOS pair
Direction: higher = stronger binding
Starting sequence: JUN, bZIP domain (human); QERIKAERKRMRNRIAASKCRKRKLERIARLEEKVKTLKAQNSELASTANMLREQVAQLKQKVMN; partner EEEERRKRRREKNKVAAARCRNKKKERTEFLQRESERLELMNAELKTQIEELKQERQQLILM
Change | binding fitness [natural log]
S43A | 0.315
S43W | 0.235
N42G | 0.263
K36P | -0.277
E32S | 0.252
M51R | 0.306
I28R | 0.317
A40P | -0.871
T48Y | 0.212
T37Q | 0.388
A29E | 0.122
E33P | -0.214
A29W | 0.185
L59W | 0.141
R53C | 0.194
V35L | 0.217
T48V | 0.255
N42D | -0.521
V35A | 0.0675
K39L | 0.28
R53P | -0.939
T48G | 0.0213
A46E | 0.286
A40L | 0.215
R30E | 0.339

Study 2
Target: ABI1, truncated, D143A, DHFR fusion (Arabidopsis thaliana)
Technique: DHFR PCA, deep sequencing
Matrix: yeast
Notes: methotrexate growth selection, single substitutions
With: (+)-ABA 4.8 µM
Baseline: wild-type fitted maximum
Direction: higher = stronger binding
Starting sequence: PYL1, truncated, DHFR fusion (Arabidopsis thaliana); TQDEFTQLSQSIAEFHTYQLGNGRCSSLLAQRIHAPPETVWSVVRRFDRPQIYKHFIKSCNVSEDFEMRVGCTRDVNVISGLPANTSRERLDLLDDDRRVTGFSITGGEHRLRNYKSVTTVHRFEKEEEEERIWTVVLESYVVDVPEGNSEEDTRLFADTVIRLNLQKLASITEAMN; partner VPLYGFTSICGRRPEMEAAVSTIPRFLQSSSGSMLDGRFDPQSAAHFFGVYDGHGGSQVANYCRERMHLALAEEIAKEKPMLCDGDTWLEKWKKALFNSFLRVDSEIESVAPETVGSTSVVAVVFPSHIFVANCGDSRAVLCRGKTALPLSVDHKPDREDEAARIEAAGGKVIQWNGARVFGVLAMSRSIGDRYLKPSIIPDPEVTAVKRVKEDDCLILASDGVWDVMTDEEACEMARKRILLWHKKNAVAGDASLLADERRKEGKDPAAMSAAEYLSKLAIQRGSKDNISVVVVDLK
Change | relative binding score [%]
T6E | 82
L166R | -1.78
T119I | 24.1
K126R | 86.7
N77D | 75.6
E174I | 13.9
E67S | 61.6
R69G | 57
I33A | 0.636
I133T | 83.3
E64H | 69.8
D96N | 29.5
Y115L | -0.704
D3H | 59.7
I79N | 27
S140P | 0.848
V137Q | 4.7
V136A | 19.1

Study 3
Molecule: B1 (IAA18)
Technique: two-hybrid
Baseline: out of 4 tests
Direction: higher = firmer interaction
B1: IAA18 (Arabidopsis thaliana, UniProt O24408); chain MEGYSRNGEISPKLLDLMIPQERRNWFHDEKNSVFKTEEKKLELKLGPPGEEDDDESMIRHMKKEPKDKSILSLAGKYFSPSSTKTTSHKRTAPGPVVGWPPVRSFRKNLASGSSSKLGNDSTTSNGVTLKNQKCDAAAKTTEPKRQGGMFVKINMYGVPIGRKVDLSAHNSYEQLSFTVDKLFRGLLAAQRDFPSSIEDEKPITGLLDGNGEYTLTYEDNEGDKMLVGDVPWQMFVSSVKRLRVIKTSEISSALTYGNGKQEKMRR
partner | positive tests
ARF7 1030-1164 (Arabidopsis thaliana, UniProt P93022) | 3
ARF1 538-665 (Arabidopsis thaliana, UniProt Q8L7G0) | 0
ARF2 727-859 (Arabidopsis thaliana, UniProt Q94JM3) | 1
IAA33 (Arabidopsis thaliana, UniProt Q9FKM7) | 2

Study 4
Target: UBE2N UBC core domain (UniProt P61088)
Technique: yeast two-hybrid
Matrix: yeast
Notes: mostly zero background
Baseline: not given
Direction: higher = stronger interaction
B2: ZMYND11 RING domain (UniProt Q15326); chain DEIDWETENHDWYCFECHLPGEVLICDLCFRVYHSKCLSDEFRLRDSSSPWQCPVCRSIKKKNTNKQEM
B3: RNF182 RING domain (UniProt Q8N6D2); chain AESQASDELECKICYNRYNLKQRKPKVLECCHRVCAKCLYKIIDFGDSPQGVIVCPFCRFETCLPDDEV
B4: MKRN3 RING domain (UniProt Q13064); chain FAVQRGMDKVCGICMEVVYEKANPNDRRFGILSNCNHSFCIRCIRRWRSARQFENRIVKSCPQCRVTSELVIPSE
B5: RNF6 RING domain (UniProt Q9Y252); chain NSIDSELGKICSVCISDYVTGNKLRQLPCMHEFHIHCIDRWLSENCTCPICRQPVLGSNIAN
B6: RING1 RING domain (UniProt Q06587); chain SPRSLHSELMCPICLDMLKNTMTTKECLHRFCSDCIVTALRSGNKECPTCRKKLVSKRSLR
B7: NFX1 RING domain (UniProt Q12986); chain IEQLTTEKYECMVCCELVRVTAPVWSCQSCYHVFHLNCIKKWARSPASQADGQSGWRCPACQNVSAHVPNTY
B8: RUFY1 RING domain (UniProt Q96T51); chain QALKGHAWLKDDEATHCRQCEKEFSISRRKHHCRNCGHIFCNTCSSNELALPSYPKPVRVCDSCHTLLLQRCSSTAS
B9: VPS8 RING domain (UniProt Q8N3P4); chain TRGLNPKQDYCSICLQQYKRRQEMADEIIVFSCGHLYHSFCLQNKECTVEFEGQTRWTCYKCSSSNKVGKLSE
B10: HLTF RING domain (UniProt Q14527); chain LILSSGSDEECAICLDSLTVPVITHCAHVFCKPCICQVIQNEQPHAKCPLCRNDIHEDNLLE
B11: TRIM11 RING domain (UniProt Q96F44); chain LSTNLQEEATCAICLDYFTDPVMTDCGHNFCRECIRRCWGQPEGPYACPECRELSPQRNLRP
Target sequence (chain): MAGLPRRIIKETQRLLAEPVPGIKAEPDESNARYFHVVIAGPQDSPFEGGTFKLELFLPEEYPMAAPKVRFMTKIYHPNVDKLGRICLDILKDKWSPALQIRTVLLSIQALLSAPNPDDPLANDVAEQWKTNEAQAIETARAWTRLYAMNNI
Molecule | lacZ reporter activity
B2 (ZMYND11 RING domain) | 0
B3 (RNF182 RING domain) | 6150
B4 (MKRN3 RING domain) | 0
B5 (RNF6 RING domain) | 0
LVKDFNPYITCYICKGYLIKPTTVTECLHTFCKTCIVQHFEDSNDCPRCGNQVHETNPLE (PCGF5 RING domain (UniProt Q86SE9)) | 0
B6 (RING1 RING domain) | 0
DDVLTKDAGECVICLEELLQGDTIARLPCLCIYHKSCIDSWFEVNRSCPEHPAD (ZNRF1 RING domain (UniProt Q8ND25)) | 12600
B7 (NFX1 RING domain) | 3040
B8 (RUFY1 RING domain) | 0
B9 (VPS8 RING domain) | 0
LEALSSDFLACKICLEQLRAPKTLPCLHTYCQDCLAQLADGGRVRCPECRETVPVPPEGV (TRIM56 RING domain (UniProt Q9BRZ2)) | 0
B10 (HLTF RING domain) | 0
B11 (TRIM11 RING domain) | 0
EIKEYKARLTCPCCNTRKKDAVLTKCFHVFCFECVRGRYEARQRKCPKCNAAFGAHDFHR (RNF40 RING domain (UniProt O75150)) | 0

Study 5
Target: CCNA1, cyclin fold, Cln2 fusion (human)
Technique: yeast growth competition, sequencing
Matrix: yeast
Notes: weak parent motif
Baseline: not given
Direction: higher = stronger binding
Starting sequence: RB1 docking peptide (human); PKPLKKLRFDIEG; partner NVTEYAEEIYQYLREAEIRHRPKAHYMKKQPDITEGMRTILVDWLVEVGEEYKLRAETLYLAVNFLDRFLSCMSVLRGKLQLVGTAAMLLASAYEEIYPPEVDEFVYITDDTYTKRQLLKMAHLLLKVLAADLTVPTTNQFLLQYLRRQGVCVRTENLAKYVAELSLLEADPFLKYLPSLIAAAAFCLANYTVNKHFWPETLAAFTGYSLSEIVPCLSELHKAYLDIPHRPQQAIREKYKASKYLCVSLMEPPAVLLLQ
Change | normalised enrichment score
PKPLKKLRFDIPG [E12P] | 0.445
PKPLKKLRFDMEG [I11M] | 0.048
PKPLKKMRFDIEG [L7M] | 0.0946
PKPLKKLRSDIEG [F9S] | 0.19
PKPLKKLYFDIEG [R8Y] | 0.234
PKGLKKLRFDIEG [P3G] | 0.383
GKPLKKLRFDIEG [P1G] | 0.156
PKVLKKLRFDIEG [P3V] | 0.205
PKELKKLRFDIEG [P3E] | 0.54
PKPLKKSRFDIEG [L7S] | 0.396
PKPLKKLRFDIEI [G13I] | -0.233
PKPVKKLRFDIEG [L4V] | 0.216
PKPLKKLRTDIEG [F9T] | 0.296
PKPLKKLRFEIEG [D10E] | -0.129
PKPLKKLTFDIEG [R8T] | 0.487
PKPLKCLRFDIEG [K6C] | 0.187
PKPLKGLRFDIEG [K6G] | 0.3
PKPLKKLRFDIER [G13R] | 0.571
PKPLSKLRFDIEG [K5S] | 0.571

Study 6
Target: Protein max, full length (MAX, Homo sapiens, UniProt P61244-2, residues 1-151)
Technique: protein-binding microarray
Form: double-stranded DNA, one strand shown
Matrix: in vitro
Concentration: not given
Notes: k-mer, scored over probes, only values ≥0.25
Direction: higher = stronger binding
Oligonucleotide | E-score
ACATGCCT | 0.38
GCATCACA | 0.255
AACATGAG | 0.347
ACGCACGA | 0.372
AGGCACGA | 0.264
CCGCCCCG | 0.275
GAACATGC | 0.369
AGCATGTC | 0.393
ACATGTAA | 0.268
GGGATCAC | 0.259
CCTCGTGC | 0.465
CATGGCGC | 0.32
CACACGTG | 0.496
TGCGGCAA | 0.257
ACCATGCG | 0.461
ACCACGGG | 0.342

Some of these lines once more (study 4):
Molecule | lacZ reporter activity
B6 (RING1 RING domain) | 0
DDVLTKDAGECVICLEELLQGDTIARLPCLCIYHKSCIDSWFEVNRSCPEHPAD (ZNRF1 RING domain (UniProt Q8ND25)) | 12600
B7 (NFX1 RING domain) | 3040
B8 (RUFY1 RING domain) | 0
B9 (VPS8 RING domain) | 0
